Measurements collected from several papers.
Compare with care: the assays were run in different laboratories. Values joined by “and” are separate records of one study, mostly repeats; a detail may differ. ± marks the error that the study gave.
CDK5 with p25: Cyclin-dependent kinase 5, with p25 (CDK5, Homo sapiens, UniProt Q00535)
Chain of UniProt Q00535 (whole entry, looked up): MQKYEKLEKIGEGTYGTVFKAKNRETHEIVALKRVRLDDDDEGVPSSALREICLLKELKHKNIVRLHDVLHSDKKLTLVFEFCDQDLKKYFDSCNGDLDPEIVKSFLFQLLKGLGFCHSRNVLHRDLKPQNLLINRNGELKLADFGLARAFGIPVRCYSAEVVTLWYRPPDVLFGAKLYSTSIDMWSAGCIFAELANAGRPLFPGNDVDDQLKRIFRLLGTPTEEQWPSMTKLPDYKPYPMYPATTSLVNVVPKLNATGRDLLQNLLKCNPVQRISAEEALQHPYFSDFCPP
B1: chain MSEILPYGEDKMGRFGADPEGSDLSFSCRLQDTNSFFAGNQAKRPPKLGQIGRAKRVVIEDDRIDDVLKGMGEKPPSGV
B2: human DDX42; sequence looked up; chain MNWNKGGPGTKRGFGFGGFAISAGKKEEPKLPQQSHSAFGATSSSSGFGKSAPPQLPSFYKIGSKRANFDEENAYFEDEEEDSSNVDLPYIPAENSPTRQQFHSKPVDSDSDDDPLEAFMAEVEDQAARDMKRLEEKDKERKNVKGIRDDIEEEDDQEAYFRYMAENPTAGVVQEEEEDNLEYDSDGNPIAPTKKIIDPLPPIDHSEIDYPPFEKNFYNEHEEITNLTPQQLIDLRHKLNLRVSGAAPPRPGSSFAHFGFDEQLMHQIRKSEYTQPTPIQCQGVPVALSGRDMIGIAKTGSGKTAAFIWPMLIHIMDQKELEPGDGPIAVIVCPTRELCQQIHAECKRFGKAYNLRSVAVYGGGSMWEQAKALQEGAEIVVCTPGRLIDHVKKKATNLQRVSYLVFDEADRMFDMGFEYQVRSIASHVRPDRQTLLFSATFRKKIEKLARDILIDPIRVVQGDIGEANEDVTQIVEILHSGPSKWNWLTRRLVEFTSSGSVLLFVTKKANAEELANNLKQEGHNLGLLHGDMDQSERNKVISDFKKKDIPVLVATDVAARGLDIPSIKTVINYDVARDIDTHTHRIGRTGRAGEKGVAYTLLTPKDSNFAGDLVRNLEGANQHVSKELLDLAMQNAWFRKSRFKGGKGKKLNIGGGGLGYRERPGLGSENMDRGNNNVMSNYEAYKPSTGAMGDRLTAMKAAFQSQYKSHFVAASLSNQKAGSSAAGASGWTSAGSLNSVPTNSAQQGHNSPDSPVTSAAKGIPGFGNTGNISGAPVTYPSAGAQGVNNTASGNNSREGTGGSNGKRERYTENRGSSRHSHGETGNRHSDSPRHGDGGRHGDGYRHPESSSRHTDGHRHGENRHGGSAGRHGENRGANDGRNGESRKEAFNRESKMEPKMEPKVDSSKMDKVDSKTDKTADGFAVPEPPKRKKSRWDS
B3: human ECM1; sequence looked up; chain ASEGGFTATGQRQLRPEHFQEVGYAAPPSPPLSRSLPMDHPDSSQHGPPFEGQSQVQPPPSQEATPLQQEKLLPAQLPAEKEVGPPLPQEAVPLQKELPSLQHPNEQKEGTPAPFGDQSHPEPESWNAAQHCQQDRSQGGWGHRLDGFPPGRPSPDNLNQICLPNRQHVVYGPWNLPQSSYSHLTRQGETLNFLEIGYSRCCHCRSHTNRLECAKLVWEEAMSRFCEAEFSVKTRPHWCCTRQGEARFSCFQEEAPQPHYQLRACPSHQPDISSGLELPFPPGVPTLDNIKNICHLRRFRSVPRNLPATDPLQRELLALIQLEREFQRCCRQGNNHTCTWKAWEDTLDKYCDREYAVKTHHHLCCRHPPSPTRDECFARRAPYPNYDRDILTIDIGRVTPNLMGHLCGNQRVLTKHKHIPGLIHNMTARCCDLPFPEQACCAEEEKLTFINDLCGPRRNIWRDPALCCYLSPGDEQVNCFNINYLRNVALVSGDTENAKGQGEQGSTGGTNISSTSEPKEE
Chain of UniProt Q64663 (whole entry, unmodified, looked up): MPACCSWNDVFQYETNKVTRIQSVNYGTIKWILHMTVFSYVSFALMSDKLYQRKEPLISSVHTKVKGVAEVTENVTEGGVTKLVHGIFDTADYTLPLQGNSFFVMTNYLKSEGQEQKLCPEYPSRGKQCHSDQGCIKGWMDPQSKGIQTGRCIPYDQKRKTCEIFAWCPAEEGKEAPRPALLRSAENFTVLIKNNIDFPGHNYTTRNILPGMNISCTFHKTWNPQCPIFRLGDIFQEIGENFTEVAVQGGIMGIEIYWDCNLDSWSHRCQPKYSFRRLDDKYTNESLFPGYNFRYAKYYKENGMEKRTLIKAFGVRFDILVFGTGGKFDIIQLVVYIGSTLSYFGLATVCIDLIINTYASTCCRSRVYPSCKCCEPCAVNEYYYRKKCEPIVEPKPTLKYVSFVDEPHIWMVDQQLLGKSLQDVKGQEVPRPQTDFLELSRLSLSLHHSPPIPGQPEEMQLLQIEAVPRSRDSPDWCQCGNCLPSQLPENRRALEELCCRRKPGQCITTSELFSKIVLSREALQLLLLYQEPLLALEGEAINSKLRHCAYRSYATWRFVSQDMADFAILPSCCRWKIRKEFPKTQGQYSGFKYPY
Chain of UniProt Q9UQM7 (whole entry, unmodified, looked up): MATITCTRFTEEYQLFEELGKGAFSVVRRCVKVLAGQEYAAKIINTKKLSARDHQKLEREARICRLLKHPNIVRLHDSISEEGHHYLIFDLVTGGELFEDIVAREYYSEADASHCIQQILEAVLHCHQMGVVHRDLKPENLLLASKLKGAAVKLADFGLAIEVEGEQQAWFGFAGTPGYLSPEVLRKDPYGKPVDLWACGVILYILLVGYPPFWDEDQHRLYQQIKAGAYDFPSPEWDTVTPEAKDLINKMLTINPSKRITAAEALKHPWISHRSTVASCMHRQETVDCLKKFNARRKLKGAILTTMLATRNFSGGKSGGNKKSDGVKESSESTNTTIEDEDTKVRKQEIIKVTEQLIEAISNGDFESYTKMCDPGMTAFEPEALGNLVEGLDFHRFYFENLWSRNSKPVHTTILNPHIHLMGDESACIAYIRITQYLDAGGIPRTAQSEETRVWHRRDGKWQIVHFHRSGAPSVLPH
Chain of UniProt Q5ANA3 (whole entry, looked up): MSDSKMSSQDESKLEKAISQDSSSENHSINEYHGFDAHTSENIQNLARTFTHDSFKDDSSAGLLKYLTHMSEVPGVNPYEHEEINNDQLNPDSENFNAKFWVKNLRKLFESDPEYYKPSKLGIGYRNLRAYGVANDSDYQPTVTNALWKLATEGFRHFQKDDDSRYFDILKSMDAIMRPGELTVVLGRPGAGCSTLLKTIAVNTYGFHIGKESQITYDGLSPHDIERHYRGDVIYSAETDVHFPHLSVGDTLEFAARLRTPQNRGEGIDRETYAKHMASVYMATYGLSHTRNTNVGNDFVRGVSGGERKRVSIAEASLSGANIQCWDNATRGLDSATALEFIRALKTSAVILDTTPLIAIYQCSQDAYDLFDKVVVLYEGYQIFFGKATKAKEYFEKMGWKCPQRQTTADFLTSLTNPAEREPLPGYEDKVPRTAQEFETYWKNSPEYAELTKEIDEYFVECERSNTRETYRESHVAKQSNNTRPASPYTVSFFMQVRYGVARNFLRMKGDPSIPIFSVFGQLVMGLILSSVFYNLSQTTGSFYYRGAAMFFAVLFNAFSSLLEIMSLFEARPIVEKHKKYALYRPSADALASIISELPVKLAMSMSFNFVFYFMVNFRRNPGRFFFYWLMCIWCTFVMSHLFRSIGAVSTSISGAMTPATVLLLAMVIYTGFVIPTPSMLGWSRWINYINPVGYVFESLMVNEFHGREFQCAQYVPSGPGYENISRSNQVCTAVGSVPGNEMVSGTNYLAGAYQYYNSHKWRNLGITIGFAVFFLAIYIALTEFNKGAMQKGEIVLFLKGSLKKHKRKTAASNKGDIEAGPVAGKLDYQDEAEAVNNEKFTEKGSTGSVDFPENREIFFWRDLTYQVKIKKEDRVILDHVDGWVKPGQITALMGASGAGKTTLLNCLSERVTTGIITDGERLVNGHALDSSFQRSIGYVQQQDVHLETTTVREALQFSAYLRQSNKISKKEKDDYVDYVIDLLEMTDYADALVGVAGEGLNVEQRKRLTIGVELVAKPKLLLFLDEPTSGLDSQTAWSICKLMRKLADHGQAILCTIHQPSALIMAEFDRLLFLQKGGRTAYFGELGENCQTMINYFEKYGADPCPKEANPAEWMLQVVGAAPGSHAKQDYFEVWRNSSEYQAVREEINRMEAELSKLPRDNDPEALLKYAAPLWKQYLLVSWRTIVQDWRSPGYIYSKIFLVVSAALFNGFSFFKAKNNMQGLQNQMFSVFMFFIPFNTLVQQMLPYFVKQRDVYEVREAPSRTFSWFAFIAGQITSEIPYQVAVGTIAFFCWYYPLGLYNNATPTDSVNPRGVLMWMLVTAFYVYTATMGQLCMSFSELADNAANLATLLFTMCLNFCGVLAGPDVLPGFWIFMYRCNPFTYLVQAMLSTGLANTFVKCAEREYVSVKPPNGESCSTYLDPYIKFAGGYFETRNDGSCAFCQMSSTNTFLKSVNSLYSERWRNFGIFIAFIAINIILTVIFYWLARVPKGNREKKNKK

For `human ME2 M75L`, the activation fold was 1.4 (enzyme activity, activator, NADH absorbance; recombinant enzyme; range over 0 to 5 mM, pH 7.4; reference: wild type).
With `B1` the ΔH was -6.88 kcal/mol and -7.89 kcal/mol (CAMK2A (Homo sapiens, UniProt Q9UQM7, D135N); binding, ITC; kinase domain D135N).
`human ME2 R70K` gave a Hill coefficient of 1.58 ± 0.12 (enzyme activity, NADH absorbance; without fumarate, together with: L-malate varied).
`BzATP` gave a normalized current of 0.753 and 0.804 and 0.825 (P2X purinoceptor 7 (P2rx7, Rattus norvegicus, UniProt Q64663, Q143A/R125A); ion current, agonist, two-electrode voltage clamp; Xenopus laevis oocytes; 33 µM; reference: highest concentration response).
For `H-KQGTGKVQK-OH`, “normalised fluorescence intensity” read 0.326 (HeLa nuclei; peripheral DNA signal, confocal microscopy, PI staining; peptide; mean of nuclei, together with: MNase 10-2 U/mL; reference: 0 U/mL MNase).
The activity change of `KEAFWDRMLSVINLMSSKMLQINA` is reported as 53% (CDK5 with p25; phosphotransferase activity, radiometric; peptide; concentration not given, 10% DMSO, together with: histone substrate; reference: p5-WT peptide).
The Hill coefficient of `human ME2 E90D` is reported as 1.12 ± 0.03 (enzyme activity, NADH absorbance; without fumarate, together with: L-malate varied).
With `KEAFWDRCLSLINLMSSKMLQINA` the activity change was 63% (CDK5 with p25; phosphotransferase activity, radiometric; peptide; concentration not given, 10% DMSO, together with: histone substrate; reference: p5-WT peptide).
For `B2 (human DDX42)`, “log2 fold change” read 0.7 (PP6C (human); co-immunoprecipitation, IP-MS; CYB5R4 knockout cells; concentration not given; reference: CYB5R4 knockout over parental).
With `KEVFWDRCLSVINLMSSKMLQINA` the activity change was 45% (CDK5 with p25; phosphotransferase activity, radiometric; peptide; concentration not given, 10% DMSO, together with: histone substrate; reference: p5-WT peptide).
With `milbemycin oxime` the fraction bound was 91.2% (CDR1 (Candida albicans, UniProt Q5ANA3); binding, microscale thermophoresis; 2.5 µM).
The activity change of `KEAFWDRCVSVINLMSSKMLQINA` is reported as 50% (CDK5 with p25; phosphotransferase activity, radiometric; peptide; concentration not given, 10% DMSO, together with: histone substrate; reference: p5-WT peptide).
`human ME2 I99V` has a Hill coefficient of 1.58 ± 0.05 (enzyme activity, NADH absorbance; without fumarate, together with: L-malate varied).
For `KESFWDRCLSVINLMSSKMLQINA`, the activity change was 35% (CDK5 with p25; phosphotransferase activity, radiometric; peptide; concentration not given, 10% DMSO, together with: histone substrate; reference: p5-WT peptide).
For `human ME2 K81R`, the Hill coefficient was 1.76 ± 0.09 (enzyme activity, NADH absorbance; without fumarate, together with: L-malate varied).
For `B3 (human ECM1)`, “log2 fold change” read -0.21 (PP6C (human); co-immunoprecipitation, IP-MS; CYB5R4 knockout cells; concentration not given; reference: CYB5R4 knockout over parental).
Under “rate constant k-2”, `11-deoxycorticosterone` is recorded as 30.8 min⁻¹ (CYP11B2 (human); substrate binding, stopped-flow kinetic modelling; 4-state branched induced-fit model, together with: no adrenodoxin).

For quick reference, copied from above:
For `human ME2 K81R`, the Hill coefficient was 1.76 ± 0.09 (enzyme activity, NADH absorbance; without fumarate, together with: L-malate varied).
For `B3 (human ECM1)`, “log2 fold change” read -0.21 (PP6C (human); co-immunoprecipitation, IP-MS; CYB5R4 knockout cells; concentration not given; reference: CYB5R4 knockout over parental).
